Published values collected from several papers.
Lines come from different studies, so protocols differ. ± marks the error that the study gave. Converted amounts (≈) assume the structure as drawn.

SMILES	tested on	test	system	conditions	scale	measurement	value
Cc1ccccc1N1C(=O)/C(=C/c2ccc(OCc3cccc(C(=O)O)c3)cc2)C(=O)NC1=S	LYP (PTPN22), human	immunoblot	Jurkat TAg	0 or 3 min, with: TCR stimulation	–	concentration for maximal effect	~4 µM
C[C@@](O)(C(F)F)[C@H](NC(=O)c1ccc(C#CC#CC2CC2)cc1)C(=O)NO	Achromobacter xylosoxidans	agar dilution	clinical isolates	–	–	MIC90	0.5 µg/mL (≈ 1.33 µM)
CCCCCc1cc(O)c2c(c1)OC(C)(C)C1CCC(C)=CC21 (stereo not drawn)	–	–	rabbit, α-chymotrypsin glaucoma model	topical, 50 µL of 0.8% w/v, 2 h	baseline: baseline	intraocular pressure	91%
CCCCCCCCC(=O)NCc1ccc(O)c(OC)c1	mouse mAb 1-F12	antibody binding, indirect competitive ELISA	–	with: coating antigen 3-OVA	–	IC50	> 4000 ng/mL
COC(=O)c1ccccc1NC(=O)Cc1cn(OC)c2ccccc12	HIV-1 reverse transcriptase L100I/K103N	viral replication	–	VSV-G pseudotyped virus	baseline: wild type	EC50 fold change	2.14 ± 0.29 fold
CCN(Cc1ccccc1)C(=O)CCc1nc(CN2CCN(C(=O)Cc3ccc(OC)c(OC)c3)CC2)no1	–	thermal withdrawal threshold, Hargreaves test	mouse CCI model	1 mg/kg, dosing from day 11	–	onset day	13 days
COC[C@@H](NC(C)=O)C(=O)NCc1ccc(N=[N+]=[N-])cc1	voltage-gated sodium channel	sodium current, whole-cell patch clamp	CAD	40 µM, 5 min washout, test potential -10 mV, with: UV irradiation	baseline: pre-drug current	current recovery	79%
CC[C@H](C)[C@H](NC(=O)[C@@H](NC(=O)[C@H](CC(=O)O)NC(C)=O)[C@@H](C)O)C(=O)N[C@@H](CCCNC(=N)N)C(=O)N[C@@H](CC(C)C)C(=O)N[C@@H](CC(C)C)C(=O)N[C@@H](Cc1ccccc1)C(=O)N[C@@H](CCC(N)=O)C(=O)N[C@@H](CC(C)C)C(=O)N[C@@H](CCSC)C(=O)N[C@@H](CCCNC(=N)N)C(=O)N1CCC[C@H]1C(=O)N1CCC[C@H]1C(=O)N[C@@H](CC(N)=O)C(=O)N[C@@H](CCSC)C(=O)N[C@H](C(=O)N1CCC[C@H]1C(=O)N[C@@H](C)C(=O)N[C@H](C(=O)N[C@@H](CC(N)=O)C(=O)N[C@@H](C)C(N)=O)C(C)C)[C@@H](C)O	–	measured: CCR9	PBMC CD4 T cells, DRB1*0101 healthy adults	dose not given, unit not given	baseline: CCR9+ over total non-specific T cells	enrichment of specific T cells	~10
N=C(N)N1CC23C4C=CC5C4C4C2C=CC4C53C1	Influenza A virus	viral replication	MDCK, H3N2 A/HK/7/87	–	–	EC50	> 100 µM
NC[C@@H]1O[C@H](O[C@H]2[C@@H](O)[C@H](O[C@@H]3[C@@H](O)[C@H](N)C[C@H](N)[C@H]3O[C@H]3O[C@H](CO)[C@@H](OCC(O)CO)[C@H](O)[C@H]3N)O[C@@H]2CO)[C@H](N)[C@@H](O)[C@@H]1O (stereo partly drawn)	Mycobacterium smegmatis ribosome wild type	translation, cell-free luciferase synthesis	–	–	–	IC50	30 ± 10 ng/mL (≈ 0.0435 µM)
N=C(N)N1CC23C4CCC5C4C4C2CCC4C53C1	Influenza A virus	viral replication	MDCK, H1N1 A/PR/8/34	–	–	EC50	≤ 1 µM
C[C@H](NC(=O)[C@@H]1CCCN1C(=O)[C@H](Cc1ccc(O)cc1)NC(=O)CNC(=O)[C@H](CO)NC(=O)[C@H](Cc1ccccc1)NC(=O)[C@@H](N)[C@@H](C)O)C(=O)N[C@@H](Cc1ccccc1)C(=O)O	mu opioid receptor, rat	ion current, agonist, whole-cell patch clamp	Sprague Dawley rat, supraoptic nucleus neurons, brain slice	dose not given	–	reversal potential	-105 mV

Repeated from above:
SMILES	tested on	test	system	conditions	scale	measurement	value
CC[C@H](C)[C@H](NC(=O)[C@@H](NC(=O)[C@H](CC(=O)O)NC(C)=O)[C@@H](C)O)C(=O)N[C@@H](CCCNC(=N)N)C(=O)N[C@@H](CC(C)C)C(=O)N[C@@H](CC(C)C)C(=O)N[C@@H](Cc1ccccc1)C(=O)N[C@@H](CCC(N)=O)C(=O)N[C@@H](CC(C)C)C(=O)N[C@@H](CCSC)C(=O)N[C@@H](CCCNC(=N)N)C(=O)N1CCC[C@H]1C(=O)N1CCC[C@H]1C(=O)N[C@@H](CC(N)=O)C(=O)N[C@@H](CCSC)C(=O)N[C@H](C(=O)N1CCC[C@H]1C(=O)N[C@@H](C)C(=O)N[C@H](C(=O)N[C@@H](CC(N)=O)C(=O)N[C@@H](C)C(N)=O)C(C)C)[C@@H](C)O	–	measured: CCR9	PBMC CD4 T cells, DRB1*0101 healthy adults	dose not given, unit not given	baseline: CCR9+ over total non-specific T cells	enrichment of specific T cells	~10
NC[C@@H]1O[C@H](O[C@H]2[C@@H](O)[C@H](O[C@@H]3[C@@H](O)[C@H](N)C[C@H](N)[C@H]3O[C@H]3O[C@H](CO)[C@@H](OCC(O)CO)[C@H](O)[C@H]3N)O[C@@H]2CO)[C@H](N)[C@@H](O)[C@@H]1O (stereo partly drawn)	Mycobacterium smegmatis ribosome wild type	translation, cell-free luciferase synthesis	–	–	–	IC50	30 ± 10 ng/mL (≈ 0.0435 µM)
